Assay results collected from several papers.
± gives the spread as reported. Converted amounts (≈) assume the structure as drawn.

SMILES	organism	test	system	setting	scale	measurement	result
COc1ccc(-n2nc3c(=O)n(Cc4cccc(NC(C)=O)c4)nc(C)c3c2C)cc1	Zika virus	–	Vero, MR766	–	baseline: CC50 over EC50	selectivity index	2.1
C[C@@H](c1ccn(Cc2ccc(OC(F)(F)F)cc2)n1)[C@](O)(Cn1cnnn1)c1ccc(F)cc1F	Candida tropicalis	growth, broth microdilution	2718	24 h, 30 °C, ≥50% inhibition	–	MIC	< 0.008 µg/mL
Nc1ncnc2c1c(-c1ccccc1)cn2[C@H]1C[C@H](O)[C@@H](CO)O1	Trichomonas vaginalis	resorufin	G3, metronidazole-sensitive	24 h + 2 h, 2% O2	–	EC50	1.56 ± 0.27 µM
C=C(C)[C@@H]1CC[C@]2(C(N)=O)CC[C@]3(C)[C@H](CC[C@@H]4[C@@]5(C)CCCNC(C)(C)[C@@H]5CC[C@]43C)[C@@H]12	Human cytomegalovirus	cytopathic effect	HFF, AD169	–	–	EC90	> 1.2 µM
CN(C)c1cc(CNC2CCCC2)c(O)c2c1C[C@H]1C[C@H]3[C@H](N(C)C)C(O)=C(C(N)=O)C(=O)[C@@]3(O)C(O)=C1C2=O	Streptococcus pneumoniae	–	ATCC 700905, Tet M ribosome protection	–	–	MIC	0.125 µg/mL (≈ 0.225 µM)
CCCCCc1ccc2c(c1O)C(c1ccc(OC)c(OC)c1)OC2=O (stereo not shown)	Naegleria fowleri	trophozoite ATP, CellTiter-Glo	ATCC 30808	concentration not given, 24 h, 37 °C	baseline: untreated	ATP level decrease	98.9%
Oc1cc(O)cc(Oc2c(O)cc(O)c3c2Oc2c(O)cc4oc5c(Oc6cc(O)cc(O)c6)c(O)cc(O)c5c4c2O3)c1	Porcine epidemic diarrhea virus	RT-qPCR, item: ORF3 RNA	Vero	50 µM, 24 h post-infection	baseline: vehicle	viral RNA level	30 to 40%
CN(C)c1cc(CN2CCOCC2)c(O)c2c1C[C@H]1C[C@H]3[C@H](N(C)C)C(O)=C(C(N)=O)C(=O)[C@@]3(O)C(O)=C1C2=O	Streptococcus pneumoniae	microbial growth, broth dilution	–	–	–	MIC	0.25 µg/mL (≈ 0.449 µM)
CCOC(=O)c1c(-c2ccccc2)oc2ncccc12	Trypanosoma cruzi	–	3T3 host cells, Tulahuen beta-galactosidase	6 days	–	EC50	14.7 µM
COc1cc(/C=C/c2cc(/C=C/c3ccc(O)c(OC)c3)nc(N)n2)ccc1O	Spodoptera frugiperda	cell growth or viability, MTT	Sf9	100 µM, 72 h	–	inhibition	90%
CC[C@@H](C)[C@@H](NC(=O)[C@@H](C)NC(=O)[C@@H](CCCCN)NC(=O)[C@@H](CC(C)C)NC(=O)[C@@H](C)NC(=O)[C@H](NC(=O)[C@@H](CCCCN)NC(=O)[C@@H](CC(C)C)NC(=O)[C@H](NC(=O)[C@@H](CCCCN)NC(=O)[C@@H](CCCCN)NC(=O)[C@@H](CCCCN)NC(=O)[C@@H](C)NC(=O)[C@@H](CCCCN)NC(=O)[C@@H](CO)NC(=O)[C@@H](Cc1ccccc1)NC(=O)[C@H](NC(=O)[C@@H](CCCCN)NC(=O)[C@@H](CC(C)C)NC(=O)[C@@H](Cc1ccccc1)NC(=O)[C@@H](CO)NC(=O)[C@@H](CCCCN)NC(=O)[C@@H](Cc1c[nH]c2ccccc12)NC(=O)[C@@H](CCCCN)NC(C)=O)[C@H](C)O)C(C)C)[C@H](C)O)C(=O)N[C@H](CO)C(=O)N[C@H](CCCCN)C(N)=O	Acinetobacter baumannii	–	11 isolates	–	–	MIC geometric mean	0.6 µM (≈ 1.83 µg/mL)
COc1ccc(Nc2c(C#N)cnc3ccc(Cl)cc23)cc1	Trypanosoma cruzi	–	cardiomyocytes, intracellular amastigotes, Y	–	baseline: without hemin over with hemin	IC50 reduction by hemin	2 fold
CN[C@H](CC(C)C)C(=O)N[C@H]1C(=O)N[C@@H](CC(N)=O)C(=O)N[C@H]2C(=O)N[C@H]3C(=O)N[C@H](C(=O)N[C@H](C(=O)O)c4cc(O)cc(O)c4-c4cc3ccc4O)[C@H](O)c3ccc(c(Cl)c3)Oc3cc2cc(c3O[C@@H]2O[C@H](CO)[C@@H](O)[C@H](O)[C@H]2O[C@H]2C[C@](C)(N)[C@H](O)[C@H](C)O2)Oc2ccc(cc2Cl)[C@H]1O	Staphylococcus aureus	Calgary Biofilm Device	MRSA 1707	biofilm	–	MBEC	> 2000 µM
Cc1ccc2nc(-c3ccccc3)c(CN3CC[C@H](F)C3)n2c1	Trypanosoma cruzi	–	3T3 host cells, Tulahuen beta-galactosidase	6 days	–	EC50	8.61 µM
CCC1(C)CCN(Cc2cc(N(C)C)c3c(c2O)C(=O)C2=C(O)[C@]4(O)C(=O)C(C(N)=O)=C(O)[C@@H](N(C)C)[C@@H]4C[C@@H]2C3)CC1	Streptococcus pneumoniae	microbial growth, broth dilution	–	–	–	MIC	< 0.06 µg/mL
CC[C@H](C)[C@H](NC(=O)[C@H](CCCCN)NC(=O)[C@H](CC(N)=O)NC(=O)[C@H](Cc1c[nH]c2ccccc12)NC(=O)[C@H](Cc1ccccc1)NC(=O)[C@H](CCCCN)NC(=O)[C@H](CCCCNC(=N)N)NC(=O)[C@H](CC(C)C)NC(=O)[C@H](Cc1c[nH]c2ccccc12)NC(=O)[C@H](CCCCN)NC(=O)[C@H](CCCCNC(=N)N)NC(=O)[C@H](CC(C)C)NC(=O)CNC(C)=O)C(=O)N[C@@H](CCCCN)C(=O)N[C@@H](CCCCNC(=N)N)C(N)=O	Gram-negative bacteria	–	–	–	–	geometric mean MIC	4.42 µM
